Assay results collected from several papers.
Each numbered part is a random draw from the data of one study; scales do not carry over between parts.

Study 1
Target: RNA binding protein fox-1 homolog 2, RRM domain, GST-SBP tag (RBFOX2, Homo sapiens, UniProt O43251-10, residues 100-194)
Method: RNA Bind-n-Seq
Form: RNA
Matrix: in vitro
Tested at: 365 nM
Setting: natural RNA segment, single round, ends assumed
Baseline: no-protein control
Direction: higher = stronger binding
Endpoint: RBNS enrichment (R)
Shared flanks, not repeated: GGGAGUUCUACAGUCCGACGAUC … UGGAAUUCUCGGGUGCCAA
Construct (chain): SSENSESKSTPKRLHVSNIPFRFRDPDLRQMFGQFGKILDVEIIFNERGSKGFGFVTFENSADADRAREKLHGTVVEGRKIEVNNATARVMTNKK
UGCUGGUGAGUCUGACACUUGGUGAGUUUUCAGCCAGUUUGUUAAACUUUUAAUUAAGUUUUGUUUAUAAUAAAAAUAUAAAUGGAUUUGAAAGUUUCCAUUUUUUAAAG: 1.05
CUUGCUUCUCUUCACAGCCAUAGGAUAAUGAAUACUCAGGCCUGUUUGUUAAAAUGCUAUUUUUAAAACCAUAUGAAGGUAGGAUAAUUAAUUACAAGUCCACAUCAUGA: 0.597
GGUUUUUAACCCAAACUCAGUGCAUUUUUUAAAAUAGUUAAGAAUCCAAGUCGAGAACACUUGAACACACAGAAGGGAGACCCCGCCUAGCAUAGAUUUGCAGUUACGGC: 68.3
GUUUAGAUGCUGUGAAAUUAAACCUGUUCUAAGUGUACUUGUUUGAAUUAAUUGUAUUGUAAUAUUAUUUGUUGAAUGUAGUAAUUAGGUAUUUAUGAAUAUAUUGCUGU: 0.884
GUGGAGAUUCCCCUAGGAGCGCUUGGCCAGCUGGGAAGGCAGCGCCCAGCUGCACUUGUUGUUGAUACAGCAUAAGUGAAUCAUGGGCAUUUCCCUGAGAGCAGUGGGAG: 0.423
AAAUUCUUUUUGCACUUUGGCCUAUCCAGUAUCUUAUUUAUUCUCUAGAUAAGCUAGGAUAUUAAUCCAGAGUUACAUUACUGAGAAUUGAGUAGUAUAAGUAGGAUGUU: 0.341
AGAUCUGCCUACCUCUCUGCCUAUGCCUAAGCCUAAGCCUAAGCCUAAGCCUAAGCCUAUGCCUAUGCCUUUCAGAGUUGGGAUUCCGGGCAUGCCACACCACUGCCCAG: 0.234
CAGCCGGGAUGCUAGGCCUAAUUGUUCAGCGUGGAGAUGGCAACUCACGUGGUGCCCUAGGUGCAGCUGCGUGGUCUGGUAUACAUGCUGCAAAAUUCACCCAGUUCCCC: 0.179
GCAAGGAGUUUCAGAAGCUAGACAUGUCUGCAAUGAUUCAAAUUUGGUACGAAAGGACUGCCAACCUAUUGGCUGAUCAUGCUUUUUAAAUUCAGAAGAGUGAUUCUAAA: 0.215
CUUAAAUAUAAGACAACAGGAAAUUUAUAUAGGAAACAUUUUCAUUCCACUUGUAUAAUUUAAGUCUUAGCUCUUUCAGAUGCAAGAAACUUAUACUAUUAAAAUUGUUG: 0.658
UAUCUGUUUUGUAAGUCUGCAUUUUUGUAUAUCGGAUUUACCUUAAGCUUCUCUAGUGAGGCAUUCUGAGCAGUGGUGAUCACAUGCCAGAUCGCCCUGCCUAUCCACAA: 0.643
CCAUCUCCCAGACCAAGGGGGCGAGGGGGUUGAGUGGAGUCUUCCCUUCAAAGCAGGGAAGAAUACCUGACUCGUUGCUUCGCAGAGCUGCUUUGACCUGCAGAGACUUG: 0.319

Study 2
Target: Interferon regulatory factor 5, full length, phosphomimetic (IRF5, Homo sapiens, UniProt Q13568-2, residues 1-514, K96S/S451D/S453D/S456D/S462D)
Method: protein-binding microarray
Form: double-stranded DNA, one strand shown
Matrix: in vitro
Tested at: 250 nM
Setting: 60-bp whole probe
Added: salmon DNA 0.4 mg/ml
Baseline: random background probes
Direction: higher = stronger binding
Endpoint: log fluorescence
Shared flanks, not repeated: GCCTAGCAC … GTCTTGATTCGCTTGACGCTGCTG
TTAGGATTCGGGTTTCGGTTAGTGCTA: 8.04 z-score
TCAACACTAGTTTTTACACTGTGCTAG: 0.593 z-score
GACGATATCAGTCACGAGACGTGCTAG: 1.22 z-score
TTAGGTATCGGTATCGGTGAGTGCTAG: 8.52 z-score
GACGGACTGGGGTATGGGGACGTGCTA: -0.32 z-score
GACGGTCTCGGACTGGGGCCGTGCTAG: -0.605 z-score
TTAGGAGTGCTACTGCTTTAGTGCTAG: -0.587 z-score
TCATTTTTTTATTTATAACTGTGCTAG: 1.26 z-score
GACGGTTTCGACTCTGGGGACGTGCTA: 5.32 z-score
TTAGATTTCGGGATTGGATTAGTGCTA: 3.48 z-score
TTAAGTTCCGGTTTCGGTTAGTGCTAG: 10.1 z-score
TCCTTCCACCATCTGATCAGGTGCTAG: 0.371 z-score
TCAAATTAGTGTTTCCCACTGTGCTAG: 0.183 z-score
TTAGGTATCGGTCTCAGTTAGTGCTAG: 6.7 z-score
TCAGCTCTAGGTTCTCTGACTGTGCTA: -0.522 z-score
TGTTTTAATTTTCTCTTTGGGTGCTAG: 1.87 z-score
TTAGGTATCGGGACTGGGTAAGTGCTA: 1.82 z-score

Study 3
Target: Histone acetyltransferase KAT6A, winged helix 1, GST fusion (KAT6A, Homo sapiens, UniProt Q92794, residues 1-85)
Method: protein binding microarray
Form: double-stranded DNA, one strand shown
Matrix: in vitro
Tested at: not given
Setting: 8-mer, flanks averaged, mean of 2 arrays, mostly near background
Baseline: not given
Direction: higher = stronger binding
Endpoint: E-score
Construct (chain): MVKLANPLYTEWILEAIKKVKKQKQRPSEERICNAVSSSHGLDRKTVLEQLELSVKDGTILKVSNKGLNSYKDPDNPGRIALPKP
CGCGGGTC: 0.416
AGGGTTAT: -0.139
CCACGCCG: 0.35
CTTTGAGC: -0.0204
ACCCGCTC: 0.361
GACGTAGA: 0.0137
GAGCGTCA: 0.119
AGGCTTAG: -0.0708
ACCCGGCG: 0.441
ATTCCCTA: -0.0216
ACACTCGA: -0.137
CACCACCC: 0.0286
CGTCGTTA: 0.0649
ATGGACAT: -0.177
ACTCCATC: -0.0672
AGCGATCA: 0.0582
AACACCAG: -0.198
TTCGAGAA: -0.0843
CCACGTGA: -0.116
ATCTCGGG: 0.0566
TACTAACA: -0.0166
AGCCTTAA: 0.0104
GAATGTGA: -0.197
CAGGACGG: 0.0724
AAATCGAA: -0.155

Study 4
Target: Ras GTPase-activating protein-binding protein 1, full length (G3BP1, Homo sapiens, UniProt Q13283)
Chain of UniProt Q13283 (whole entry, looked up): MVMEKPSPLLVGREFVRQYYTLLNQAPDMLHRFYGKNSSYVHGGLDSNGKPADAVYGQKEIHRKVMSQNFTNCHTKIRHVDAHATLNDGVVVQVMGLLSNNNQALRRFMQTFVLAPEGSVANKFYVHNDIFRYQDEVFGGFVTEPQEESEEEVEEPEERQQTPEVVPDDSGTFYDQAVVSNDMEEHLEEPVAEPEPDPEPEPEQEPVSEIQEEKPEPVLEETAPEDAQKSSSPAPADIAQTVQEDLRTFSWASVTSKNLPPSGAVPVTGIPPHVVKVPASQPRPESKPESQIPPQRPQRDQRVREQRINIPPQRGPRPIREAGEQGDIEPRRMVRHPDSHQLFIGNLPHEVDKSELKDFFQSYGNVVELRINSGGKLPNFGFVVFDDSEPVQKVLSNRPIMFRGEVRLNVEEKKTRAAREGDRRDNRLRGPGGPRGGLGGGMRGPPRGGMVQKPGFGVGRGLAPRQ
Method: RNA Bind-n-Seq
Form: RNA
Matrix: in vitro
Tested at: 200 nM
Setting: whole 134-nt RNA, ends assumed
Added: 150 mM LiCl
Baseline: input library
Direction: higher = stronger binding
Endpoint: log2 enrichment
Each molecule: 7-deaza-guanosine replaces G
Shared flanks, not repeated: GGGAGUUCUACAGUCCGACGAUC … UGGAAUUCUCGGGUGUCAAGG
CAAGUCCUGUGCUACACAUCGUAUGUACCGAAUCGGUUUGGGGUUUGGGUUUGGGGAAAGUAUUAUGUUACGCCGUUCGGAUCUGCACUU: -1.03
UGGCCCUGGUGGCAUGCGGGGAGGAAGAGGUGGCCUCAUGGAUCGUGGUGGUCCCGGUGGAAUGUUCAGAGGUGGUCGUGGUGGAGACAG: -0.0585
GUCCUGUGCUACACAUCGUAUGUACCGAAUCGGGGAAAAAGGAAAAAGGGAAAAAGGGAAAGUAUUAUGUUACGCCGUUCGGAUCUGCAC: -0.142
CAAGUCCUGUGCUACACAUCGUAUGUACCGAAUCGGAAAAAGGAAAAAGGUUUGGAAAGUAUUAUGUUACGCCGUUCGGAUCUGCACUUC: -2.14
UAACUUUAGAGGAGGAUCUGAUGGAUAUGGCAGUGGACGUGGAUUUGGGGAUGGCUAUAAUGGGUAUGGAGGAGGACUUGGAGGUGGCAA: 0.143
UGGGAGGUGGAUUUUGUUUAUUUUUUUAGCUCAUUUCCAGGGGUGGGAAUUUUUUUUUAAUAUGUGUCAUGAAGAAAGUUGUUUUUGAAA: -0.29
AAGUCCUGUGCUACACAUCGUAUGUACCGAAUCGGGAAAAAGGGAAAGGGUUUGGGAAAGUAUUAUGUUACGCCGUUCGGAUCUGCACUU: -1.84
UUCCUCAAGUCCUGUGCUACACAUCGUAUGUACCGAAUCGGAGGGAGGAGGAAAGUAUUAUGUUACGCCGUUCGGAUCUGCACUUCCAGC: -1.24
GCAGGAAGUAAAAACAAAUGGAAAUGCUUCGGAUAGUGGCAGGGGUGGGGGUUGCUAAGGAAAGGGUGUGAUGGGAGUGGGUAAAGAGUU: -0.0814
GUCCUGUGCUACACAUCGUAUGUACCGAAUCGGGCCCCCCGGCCCCCCGGGCCCCCCGGAAAGUAUUAUGUUACGCCGUUCGGAUCUGCA: -0.676
CUGUGCUACACAUCGUAUGUACCGAAUCGGGCCCCCCCGGCCCCCCCGGGGCCCCCCCGGGGAAAGUAUUAUGUUACGCCGUUCGGAUCU: 0.524

Excerpt of the above (study 3):
CTTTGAGC: -0.0204
CGCGGGTC: 0.416
CCACGCCG: 0.35
GAGCGTCA: 0.119
ATTCCCTA: -0.0216
ACCCGCTC: 0.361
